Results pooled from the literature.
Each line is one published result; not all experiments were run side by side. Several values in a cell are separate wells, animals, samples, runs or records.
Cell line: HaCaT

`CC(=O)Oc1ccc(/C=C/C(=O)Oc2ccc(C(F)(F)F)c(C(F)(F)F)c2)cc1OC(C)=O` has a CC50 of 84.5 µM (cell growth or viability, MTT; 24 h).
With `CSCC[C@H](NC(=O)[C@H](CCCCN)NC(=O)[C@H](CC(N)=O)NC(=O)[C@H](C)NC(=O)[C@H](C)NC(=O)[C@H](CCCCN)NC(=O)[C@H](C)NC(=O)[C@@H](NC(=O)CNC(=O)[C@H](Cc1c[nH]c2ccccc12)NC(=O)[C@H](Cc1ccc(O)cc1)NC(=O)[C@H](CC(C)C)NC(=O)[C@H](CCCCN)NC(=O)CNC(=O)[C@@H](NC(=O)[C@H](Cc1c[nH]c2ccccc12)NC(=O)CNC(=O)[C@H](Cc1ccccc1)NC(=O)[C@H](CCCCN)NC(=O)[C@H](CC(C)C)NC(=O)[C@@H](NC(=O)[C@@H](NC(=O)[C@H](CCCNC(=N)N)NC(=O)[C@H](Cc1c[nH]c2ccccc12)NC(=O)CN)[C@@H](C)O)C(C)C)C(C)C)C(C)C)C(=O)N[C@@H](C)C(=O)N[C@@H](CCCNC(=N)N)C(=O)N[C@@H](Cc1ccc(O)cc1)C(=O)N[C@@H](CC(C)C)C(=O)N[C@H](C(=O)N[C@@H](CCCCN)C(=O)N[C@@H](C)C(=O)N[C@H](C(=O)N[C@@H](Cc1ccc(O)cc1)C(=O)NCC(=O)N[C@@H](CCCNC(=N)N)C(=O)N[C@H](C(=O)N[C@@H](CCCNC(=N)N)C(=O)N[C@@H](CCCCN)C(=O)N[C@@H](CC(=O)O)C(=O)N[C@@H](C)C(=O)O)C(C)C)C(C)C)[C@@H](C)O` the IC50 was 4.82 µM (cytotoxicity, MTT; 24 h, 37 °C).
`COC(=O)/C=C/c1ccc(O)c(O)c1` gave a CC50 of 194 µM (cell growth or viability, MTT; 24 h).
The cell growth of `CC[C@H](C)[C@H](NC(=O)[C@H](C)NC(=O)[C@H](CCCCN)NC(=O)[C@H](CCCCN)NC(=O)[C@@H](N)CCCNC(=N)N)C(=O)N[C@@H](CCCCN)C(=O)N[C@@H](CC(C)C)C(=O)N[C@H](C(=O)N[C@@H](CCCCN)C(=O)N[C@@H](CCCCN)C(=O)N[C@@H](CC(C)C)C(=O)N[C@H](C(=O)N[C@@H](CCCCN)C(=O)N[C@@H](CCCCN)C(=O)N[C@@H](CC(C)C)C(=O)N[C@@H](CCCCN)C(=O)N[C@@H](CCCCN)C(=O)N[C@@H](C)C(=O)N[C@@H](CC(C)C)C(=O)N[C@@H](CCCCN)C(=O)O)C(C)C)C(C)C` is reported as 89.9% and 98.9% and 90.9% and 92.1% and 85.1% (MTT; 8 mg/L; reference: untreated).
The IC50 of `CC[C@H](C)[C@H](NC(=O)CN)C(=O)N[C@@H](Cc1c[nH]c2ccccc12)C(=O)N[C@@H](CCCCN)C(=O)N1CCC[C@H]1C(=O)N[C@H](C(=O)N[C@@H](Cc1ccccc1)C(=O)N[C@H](C(=O)N[C@@H](Cc1ccc(O)cc1)C(=O)N[C@@H](CC(C)C)C(=O)N[C@@H](C)C(=O)N[C@H](C(=O)N1CCC[C@H]1C(=O)N[C@H](C(=O)N[C@@H](Cc1c[nH]cn1)C(=O)N[C@@H](Cc1ccccc1)C(=O)N[C@@H](CCCCN)C(=O)N[C@@H](Cc1ccccc1)C(=O)O)[C@@H](C)CC)[C@@H](C)O)[C@@H](C)O)[C@@H](C)CC` is reported as 31.4 µM (cytotoxicity, MTT; 24 h, 37 °C).
`CC(=O)Oc1ccc(/C=C/C(=O)Oc2cc(C(F)(F)F)cc(C(F)(F)F)c2)cc1OC(C)=O` has a subcytotoxic concentration of 25 µM (MTT; 24 h, 10% FBS).
`Cc1ccc(NS(=O)(=O)c2c(C(=O)N3CCCCCC3)c(C)n(C)c2C)c(Cl)c1` gave a viability of 100% and 95.7% (33.33 µM, 60 h).
The LC50 of `CC(C)C[C@H](NC(=O)[C@H](CC(N)=O)NC(=O)[C@H](CCCNC(=N)N)NC(=O)[C@@H](CC(C)C)NC(=O)[C@H](Cc1ccc(-c2ccccc2)cc1)NC(=O)[C@H](CC(=O)O)NC(=O)[C@H](CCCNC(=N)N)NC(=O)[C@@H](CC(C)C)NC(=O)[C@H](CCCCN)NC(=O)[C@H](CCC(N)=O)NC(=O)[C@@H](NC(=O)[C@@H](CC(C)C)NC(=O)[C@H](CCCNC(=N)N)NC(=O)[C@H](CCCCN)NC(=O)[C@H](Cc1ccc(-c2ccccc2)cc1)NC(=O)CN)C(C)C)C(=O)N[C@H](C(N)=O)C(C)C` is reported as 35 µM (cell viability, MTS; 1 h, 37 °C, 10% FBS).
With `CC(C)C[C@H](NC(=O)[C@H](CC(C)C)NC(=O)[C@H](CCCCN)NC(=O)CNC(=O)[C@H](CC(C)C)NC(=O)CNC(=O)[C@H](CO)NC(=O)[C@H](CC(C)C)NC(=O)[C@H](CC(C)C)NC(=O)[C@H](CO)NC(=O)[C@H](CCCCN)NC(=O)[C@H](CC(C)C)NC(=O)[C@H](CCCCN)NC(=O)[C@H](CCCCN)NC(=O)[C@H](CC(C)C)NC(=O)[C@H](CC(C)C)NC(=O)[C@H](CC(C)C)NC(=O)CNC(=O)[C@H](CO)NC(=O)[C@H](Cc1c[nH]c2ccccc12)NC(=O)[C@@H](N)CCCCN)C(=O)O` the TC50 was 20 µM (MTS; 24 h).
With `CC[C@H](C)[C@H](NC(=O)[C@H](C)NC(=O)[C@H](CCCCN)NC(=O)[C@H](CC(C)C)NC(=O)[C@@H](N)Cc1ccccc1)C(=O)N[C@@H](CCCCN)C(=O)N[C@@H](CCCCN)C(=O)N[C@@H](Cc1ccccc1)C(=O)NCC(=O)N[C@@H](CCCCN)C(=O)N[C@@H](CCC(=O)O)C(=O)N[C@@H](Cc1ccccc1)C(=O)N[C@@H](CCCCN)C(=O)N[C@@H](CCCCN)C(=O)N[C@H](C(=O)NCC(=O)N[C@@H](C)C(=O)N[C@@H](CCCCN)C(=O)N[C@@H](CC(C)C)C(=O)N[C@@H](CCCCN)C(=O)O)[C@@H](C)CC` the cell growth was 92.2% and 95.7% and 89.8% and 98.2% and 97.1% (MTT; 8 mg/L; reference: untreated).

Repeated from above:
The LC50 of `CC(C)C[C@H](NC(=O)[C@H](CC(N)=O)NC(=O)[C@H](CCCNC(=N)N)NC(=O)[C@@H](CC(C)C)NC(=O)[C@H](Cc1ccc(-c2ccccc2)cc1)NC(=O)[C@H](CC(=O)O)NC(=O)[C@H](CCCNC(=N)N)NC(=O)[C@@H](CC(C)C)NC(=O)[C@H](CCCCN)NC(=O)[C@H](CCC(N)=O)NC(=O)[C@@H](NC(=O)[C@@H](CC(C)C)NC(=O)[C@H](CCCNC(=N)N)NC(=O)[C@H](CCCCN)NC(=O)[C@H](Cc1ccc(-c2ccccc2)cc1)NC(=O)CN)C(C)C)C(=O)N[C@H](C(N)=O)C(C)C` is reported as 35 µM (cell viability, MTS; 1 h, 37 °C, 10% FBS).
